Measurements from different studies.
“And” joins repeats or separate records; there may be more than shown. Values after ≈ are worked out from the molar mass of the structure shown.

CC[C@H](C)[C@H](NC(=O)[C@H](CC(N)=O)NC(=O)[C@H](Cc1ccccc1)NC(=O)[C@H](CCCNC(=N)N)NC(=O)[C@H](CCCNC(=N)N)NC(=O)[C@@H](N)CCCCN)C(=O)N[C@@H](CCCCN)C(=O)N[C@@H](CC(C)C)C(=O)N[C@@H](Cc1c[nH]c2ccccc12)C(=O)N[C@@H](CCCCN)C(=O)N[C@H](C(=O)N[C@@H](Cc1ccccc1)C(=O)O)[C@@H](C)O — MBC (Staphylococcus haemolyticus): 32 µg/mL (≈ 19.5 µM)
O=[N+]([O-])c1cc2c(ccc3c2ccc2cc([N+](=O)[O-])oc23)o1 — MIC90 (Klebsiella aerogenes; REMA): > 32 µg/mL
O=[N+]([O-])c1ccc(C2=[N+]([O-])c3ccccc3N3CCN=C23)cc1 — MIC50 (Parabacteroides distasonis and Bacteroides spp.; bacterial growth): ≤ 0.06 µg/mL
CC(C)C1NC(=O)C(C(=O)NC(C(=O)NC2C(=O)N3C2SC(C)(C)C3C(=O)O)c2ccccc2)=C1O (centres unmarked) — MIC (Escherichia coli; broth microdilution; JW0790-2 fiu deletion mutant; ferric iron uptake gene): 25 µg/mL (≈ 48.4 µM)
C=C(CN(C(=O)c1c(C(F)F)nn(C)c1F)C1CC1)c1ccc(Cl)cc1Cl — colony diameter (Sclerotinia sclerotiorum; 1.56 mg/L): 23 mm and 12 mm and 20 mm and 16 mm and 15 mm
COc1cccc(C(=O)NN(C(=O)c2cc(C)cc(C)c2)C(C)(C)C)c1C — adult lifespan (Anopheles gambiae s.l.; pyrethroid-resistant; topical, 0.4 %; reference: control): decreased
CN[C@H](CC(C)C)C(=O)N[C@H]1C(=O)N[C@@H](CC(N)=O)C(=O)N[C@H]2C(=O)N[C@H]3C(=O)N[C@H](C(=O)N[C@H](C(=O)O)c4cc(O)cc(O)c4-c4cc3ccc4O)[C@H](O)c3ccc(c(Cl)c3)Oc3cc2cc(c3O[C@@H]2O[C@H](CO)[C@@H](O)[C@H](O)[C@H]2O[C@H]2C[C@](C)(N)[C@H](O)[C@H](C)O2)Oc2ccc(cc2Cl)[C@H]1O — MBC (Streptococcus pyogenes; erythromycin-resistant, 19 strains): 8 µg/mL (≈ 5.52 µM)
COC(=O)N[C@H](C(=O)N1CCC[C@H]1c1ncc(-c2ccc(-c3ccc(-c4cnc([C@@H]5CCCN5C(=O)[C@@H](NC(=O)OC)C(C)C)[nH]4)cc3)cc2)[nH]1)C(C)C — combination index (Hepatitis C virus; replicon cells; 90% effect level, with: IFN-alpha, ratio 1:1): 0.58
Cc1c([N+](=O)[O-])oc2ccc3ccccc3c12 — MIC90 (Klebsiella aerogenes; REMA): 1.1 µg/mL (≈ 4.84 µM)
CC[C@H](C)[C@H](NC(=O)[C@H](C)NC(=O)[C@H](CCCCN)NC(=O)[C@H](CC(C)C)NC(=O)[C@H](C)NC(=O)[C@@H](NC(=O)[C@H](Cc1c[nH]cn1)NC(=O)[C@H](CC(C)C)NC(=O)[C@@H](NC(=O)[C@@H](NC(=O)[C@H](CCCCN)NC(=O)[C@H](C)NC(=O)[C@H](C)NC(=O)[C@H](CO)NC(=O)[C@H](CCCCN)NC(=O)[C@H](Cc1ccccc1)NC(=O)[C@@H](NC(=O)[C@H](CCCCN)NC(=O)[C@H](CC(C)C)NC(=O)[C@H](Cc1ccccc1)NC(=O)[C@H](CO)NC(=O)[C@H](CCCCN)NC(=O)[C@H](Cc1c[nH]c2ccccc12)NC(=O)[C@H](CCCCN)NC(C)=O)[C@@H](C)O)[C@@H](C)O)C(C)C)[C@@H](C)O)C(=O)N[C@@H](CO)C(=O)N[C@@H](CO)C(N)=O — MIC geometric mean (Streptococcus pyogenes; ATCC 19615; 1 strain): 8 µg/mL (≈ 2.73 µM)
CCC(C)NCC(O)(c1ccc(Cl)cc1)c1ccc(Cl)cc1 (centres unmarked) — inhibition (Plasmodium yoelii; oxygen consumption; 17XL; 2 µM): 4%
CS(=O)(=O)CCCn1c(Cn2c(=O)n(CC(F)(F)F)c3ccncc32)cc2cc(Cl)ccc21 — LS mean difference vs placebo (respiratory syncytial virus; RT-qPCR; hospitalized infants 1-24 months, nasal swab; oral, 1-9 mg/kg daily, day 4, all doses combined; reference: placebo): -1.4 log10 copies/mL
COC1=CC(c2ccc[nH]2)=N/C1=C\c1[nH]c(C)cc1-c1ccccc1.Cl — parasitaemia reduction (Plasmodium yoelii; CF1 mice; oral, 10 mg/kg daily for 4 days, day 5; reference: vehicle): 6.73%
COc1ccc(-c2nnc(NC(=O)c3cccc([N+](=O)[O-])c3)s2)cc1OC — IC50 (Tetrahymena pyriformis and Klebsiella pneumoniae; virulence in co-culture): 1.77 µM
Cc1[nH]c(/C=C2\N=C(c3ccc[nH]3)C=C2OC(C)C)cc1Cc1ccc(OC(F)(F)F)cc1.Cl — parasitaemia reduction (Plasmodium yoelii; CF1 mice; oral, 10 mg/kg daily for 4 days, day 5; reference: vehicle): 100%
COc1cc(-c2nc(-c3ccccc3)c(-c3ccccc3)[nH]2)cc(OC)c1O — inhibition (Plasmodium yoelii; oxygen consumption; 17XL; 2 µM): 0%
COc1ccc2c(ccc3oc([N+](=O)[O-])cc32)c1 — MIC90 (Mycolicibacterium aurum; REMA; ATCC 23366): 0.25 µg/mL (≈ 1.03 µM)
C[C@@H](O)[C@H]1C(=O)N2C(C(=O)O)=C(S[C@@H]3CN[C@H](C(=O)N(C)C)C3)[C@H](C)[C@H]12 — lung bacterial burden difference (Acinetobacter baumannii; ATCC 19606, rat lung infection, lung; 30 mg/kg): -1.41 log10 CFU/g and -1.23 log10 CFU/g
Cc1nnc(-c2ccccc2)nc1O — IC50 (Tetrahymena pyriformis and Klebsiella pneumoniae; virulence in co-culture): 4.49 µM
COC1=CC(c2ccc[nH]2)=N/C1=C\c1[nH]c(-c2ccc(Cl)cc2)cc1-c1ccc(Cl)cc1 — parasitaemia reduction (Plasmodium yoelii; CF1 mice; oral, 10 mg/kg daily for 4 days, day 5; reference: vehicle): 0%
NC[C@H]1O[C@H](O[C@H]2[C@H](O)[C@@H](O[C@H]3O[C@H](CO)[C@@H](O)[C@H](N)[C@H]3O)[C@H](N)C[C@@H]2N)[C@H](O)[C@@H](O)[C@@H]1O — survival (Acinetobacter baumannii; colony counting; 19606, biofilm; 25 µg/mL, 12 h, with: HNP1 8 µM): 50.1% and 33.8% and 38.8% and 31.3% and 53.9% and 51.4%
Nc1ncnc2c1ncn2[C@@H]1O[C@@H]2COP(=O)(O)O[C@H]3[C@@H](O)[C@H](n4cnc5c(=O)[nH]cnc54)O[C@@H]3COP(=O)(O)O[C@H]2[C@H]1O — fold enrichment (West Nile virus; RNA sequencing Reactome analysis, refers to: Cell-Cell communication (R-HSA-1500931); HFF-1; concentration not given, downregulated pathways, with: West Nile virus infection; reference: WNV-infected without compound): 4.82
CCOC(=O)C1(Cc2ccccc2)CN(c2ccccc2)Cc2nnn(Cc3ccc(OC)cc3)c21 (centres unmarked) — EC50 (human adenovirus 2; viral replication; HEL): > 100 µM
Cn1c(=O)ccc2ccc(F)c(CCNC[C@H]3CN(c4cnc5c(n4)NC(=O)CO5)C(=O)O3)c21 — MIC90 (Salmonella sp.): 0.25 µg/mL (≈ 0.534 µM)
COc1ccc2c(-c3nc(-c4c(C)[nH]c5ccc(OC)cc45)cs3)c[nH]c2c1 — IC50 (Human papillomavirus 16; viral replication, Hirt-qPCR; C-33-A; transient E1/E2-dependent ori replication): 0.1 µM
CCCN/C(=N/C)c1ccc(NC(=O)c2ccc(C(=O)Nc3ccc(/C(=N\C)NCCC)cc3)cc2)cc1 — IC50 (Tetrahymena pyriformis and Klebsiella pneumoniae; virulence in co-culture): 13.5 µM

Excerpt of the above:
COc1ccc(-c2nnc(NC(=O)c3cccc([N+](=O)[O-])c3)s2)cc1OC — IC50 (Tetrahymena pyriformis and Klebsiella pneumoniae; virulence in co-culture): 1.77 µM
Cc1[nH]c(/C=C2\N=C(c3ccc[nH]3)C=C2OC(C)C)cc1Cc1ccc(OC(F)(F)F)cc1.Cl — parasitaemia reduction (Plasmodium yoelii; CF1 mice; oral, 10 mg/kg daily for 4 days, day 5; reference: vehicle): 100%
